Experimental data from different studies.
Every numbered part comes from another study and shows a few of its results, in no order. Positions count from the first letter of the parent shown.

Series 1 — target: CCND2, cyclin fold, Cln2 fusion (human); method: yeast growth competition, sequencing; sample: yeast; setting: weak parent motif; reference: not given; direction: higher = stronger binding
Starting sequence: RBL2 docking peptide (human); STTRRRLFVENDS
| Substitution | normalised enrichment score |
| --- | --- |
| N11A | -0.268 |
| R4H | -0.0726 |
| R6M | 0.2 |
| D12Y | 0.295 |
| V9S | 0.0161 |
| S13G | 0.233 |
| S1G | 0.464 |
| D12M | -0.0422 |
| S13K | -0.0277 |
| T3H | -0.0368 |
| R5K F8L | -0.116 |
| T2F | -0.0537 |
| E10F | 0.271 |

Series 2 — method: RNA Bind-n-Seq; molecule type: RNA; sample: in vitro; tested at: 365 nM; reference: no-protein control; direction: higher = stronger binding
Target: RNA binding protein fox-1 homolog 2, RRM domain, GST-SBP tag (RBFOX2, Homo sapiens, UniProt O43251-10, residues 100-194)
Setting: natural RNA segment, single round, ends assumed
All sequences stand within: GGGAGUUCUACAGUCCGACGAUC … UGGAAUUCUCGGGUGCCAA
Construct (chain): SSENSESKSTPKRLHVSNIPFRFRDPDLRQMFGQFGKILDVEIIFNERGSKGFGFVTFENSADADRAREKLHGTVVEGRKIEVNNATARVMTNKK
| Oligonucleotide | RBNS enrichment (R) |
| --- | --- |
| UGCUCUUAGUUACAUGUAAAAUUUUAGAUUUCUAAAACAGGUGGGCAAUCAUUUUGAAUACUGUUCUGUGACCCUGACUGCUAGUUCUGAGGACACUGGUGGCUGUGCUA | 0.511 |
| UUUUCAGGGAAAACUAUAUAAAAGCUUUCUGAGCCACAGCCUUUUAAAAGGGGAAAGGCUAAUAGUAAAAUUUGACUUUCUGACUGCAUGCAACUGCUGGGCUUGCCUUC | 1.28 |
| GGAGCCAUAUUCGCAGUCUUCGUUUGUCAGUCAGCUGGGUGACCUUGAAUAAGCUGCUGCUUACCCCACUGAGCCUCAGUUUUUCCUAUGUAAGAGUGAUAUAAAACCUA | 0.316 |
| GGCUUGCUGUGGGACGCCCUCGUACUUUGCUCUCCUUGCGGGUGGUUGCCGAGCCGAGAGCAUUGGAUCCUCCCCGACUGUGGCUAGUUGUCUGUCCGGUGGCUGGGAGG | 0.599 |
| UUCUCAGAGAGCCAAAGCUGAAUUCUCAGAGCUCCAAGGCCCUCCACAAGAUGCUAGAGGAAGCUCAGGGAAAAACAGGACGUAGGCGGAGCACAUCUGUGGUCAAUGGG | 0.273 |
| UUCUAUGCCUUAUUUGAGUUAUCACUUGGAGGGAGGUGGAAGUUGACUCUCUUUUUCACUGUAGAAUAAUGUGGAAAUAACCCUAGAUAAAAAUUCAGUCUGAUAACCUC | 0.69 |
| UAGGAUUUCCUCUUUUCCAGGCACAUUGUAAACUGUGUCUACAGUUUAUCCAUAUAACUUCUCUUCUGAAAACUGAGGAGUGUCCUCUGUUCUUCCAGUUCACGAGGGCA | 0.231 |
| GGCUGGAAACCCAGGUGUUGUGCUGGCACUGCCCAGGCUGAGACUCUUCAAGUCCCGCUGACGUCUGAGCUUUGAUGCUUAAGAGGGGUGAGGCAGGGAGCGGACUUCCU | 0.618 |
| UUAGGACAAAGUCAGCCAGACACCUUGUACUGGGCACGCGUCAGACUGCAGCCAGUCCGUUUCCUUUCUUUAGCCAGCCAUCCUGGUACUGUAGUUUAGGGGUUGAUGGU | 0.5 |
| CUGAGGCAUGGAGAGCAGAUUCAGGGUGUGUGUGUGUGUGUGUGUGUGUGUAUGUGCGUGUGCGUGCACAUGUGUGCCUGCGUGUUGGUAUAGGACUUUAAAGCUCCUUU | 1.86 |
| UAAAACCCAAUACUUUUGUCCAAUGUGGUUGGUCAAAUCAACUGAAUAAAUUCAGUAUUUUGCCUUAGUUGUUGUGAAGCCUGUGAUUCUCAGCUGGGACUGAGGAUGGG | 0.83 |
| CAGAAACUGACAGGAAUCAAUCAAAACAAUCGAAUUUUGAAUUGAGUAAAGUGCAAUUUCAUUGGAUAGCUAAAUAUCUUUGUAAGAUAGAGAUUGUUGAAAAUUCUAUU | 0.362 |

Series 3 — method: protein binding microarray; molecule type: double-stranded DNA, one strand shown; sample: in vitro; tested at: not given; reference: not given; direction: higher = stronger binding
Target: Histone acetyltransferase KAT6A, winged helix 2, GST fusion (KAT6A, Homo sapiens, UniProt Q92794, residues 85-181)
Setting: 8-mer, flanks averaged, mean of 2 arrays, mostly near background
Construct (chain): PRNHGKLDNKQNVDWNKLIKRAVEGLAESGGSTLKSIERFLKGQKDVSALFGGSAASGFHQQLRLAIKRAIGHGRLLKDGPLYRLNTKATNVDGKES
| Oligonucleotide | E-score |
| --- | --- |
| CGAGCGAG | 0.275 |
| AGCGTCTA | -0.117 |
| AGGAGTAC | -0.136 |
| CCTCAAGA | -0.0709 |
| GCCCTTCC | 0.0839 |
| AATGGTAT | -0.0895 |
| ACTTCTAT | 0.00398 |
| GCGGGAAA | 0.25 |
| AACTTCGG | -0.104 |
| GAAGCCCC | -0.139 |
| CTACGCCA | -0.0702 |
| CTACGTAA | -0.113 |
| CTCGGGGA | 0.181 |
| AGTTAGTG | -0.0227 |
| GGTTAGAA | -0.212 |
| AATGTGTA | -0.0815 |
| ACTGGCTG | -0.0231 |

Series 4 — method: universal PBM; molecule type: double-stranded DNA, one strand shown; sample: in vitro; tested at: 600 nM; direction: higher = stronger binding
Target: Sal-like protein 4, full length isoform A (SALL4, Homo sapiens, UniProt Q9UJQ4, residues 1-1053)
UniProt Q9UJQ4, sequence (whole entry, looked up): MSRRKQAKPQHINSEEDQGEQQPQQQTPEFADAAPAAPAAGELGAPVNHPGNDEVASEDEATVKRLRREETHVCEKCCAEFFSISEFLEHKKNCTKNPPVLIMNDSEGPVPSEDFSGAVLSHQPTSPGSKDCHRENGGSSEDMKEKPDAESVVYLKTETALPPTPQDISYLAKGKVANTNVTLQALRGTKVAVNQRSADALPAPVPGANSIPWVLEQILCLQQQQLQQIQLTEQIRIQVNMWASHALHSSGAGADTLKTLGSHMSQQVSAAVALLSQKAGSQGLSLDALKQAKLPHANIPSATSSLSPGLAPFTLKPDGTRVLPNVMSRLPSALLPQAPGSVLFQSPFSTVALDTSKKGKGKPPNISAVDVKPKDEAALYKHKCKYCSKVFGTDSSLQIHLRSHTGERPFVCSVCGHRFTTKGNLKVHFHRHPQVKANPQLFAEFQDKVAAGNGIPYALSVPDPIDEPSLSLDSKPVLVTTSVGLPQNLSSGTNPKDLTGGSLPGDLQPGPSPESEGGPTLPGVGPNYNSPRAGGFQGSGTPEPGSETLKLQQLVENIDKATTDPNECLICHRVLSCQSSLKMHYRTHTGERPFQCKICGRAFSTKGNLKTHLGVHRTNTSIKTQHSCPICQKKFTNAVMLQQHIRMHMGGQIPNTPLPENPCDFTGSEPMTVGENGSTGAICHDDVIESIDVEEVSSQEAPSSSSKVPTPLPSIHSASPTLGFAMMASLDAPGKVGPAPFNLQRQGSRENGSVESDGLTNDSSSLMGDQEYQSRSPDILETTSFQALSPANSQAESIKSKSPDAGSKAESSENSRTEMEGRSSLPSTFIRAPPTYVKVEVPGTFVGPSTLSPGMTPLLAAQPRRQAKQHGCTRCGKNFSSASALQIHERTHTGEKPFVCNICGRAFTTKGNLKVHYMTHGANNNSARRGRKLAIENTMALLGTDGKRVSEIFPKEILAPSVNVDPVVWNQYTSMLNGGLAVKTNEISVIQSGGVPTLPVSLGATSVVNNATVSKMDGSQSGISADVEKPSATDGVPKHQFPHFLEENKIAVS
Setting: 8-mer, flanks averaged, mean of replicates
| Oligonucleotide | E-score |
| --- | --- |
| AACCGGGA | -0.0408 |
| AGTCTATA | 0.244 |
| AGAGTTAA | 0.127 |
| CATGACAA | -0.0207 |
| CAGCGCTG | -0.0689 |
| AATTCGAC | -0.0411 |
| ACGCAAGG | -0.16 |
| GTGCGGAA | -0.0695 |
| TCACGTCA | -0.028 |
| TAGTGTAA | 0.282 |
| ACGGACAA | -0.0372 |
| CGCTCGTA | -0.0777 |
| ACTTCCAG | -0.00462 |
| CAGTTACC | -0.0661 |
| AACAGGAG | -0.00449 |
| GGGGAGCA | -0.342 |
| AAGTAGGT | -0.074 |
| AAGGAGTC | -0.172 |
| ATCTCCTA | 0.01 |
| TCTCCTAA | 0.179 |
| AACCGCTT | -0.0917 |
| AAGATATG | 0.3 |
| GCTCGAGC | -0.0496 |
| CACGTGCC | -0.169 |
| CCTAGGTA | -0.00705 |

Series 5 — method: DHFR PCA, deep sequencing; sample: yeast; with: (+)-ABA 2500 µM; reference: wild-type fitted maximum; direction: higher = stronger binding
Target: ABI1, truncated, D143A, DHFR fusion (Arabidopsis thaliana)
Setting: methotrexate growth selection, single substitutions
Starting sequence: PYL1, truncated, DHFR fusion (Arabidopsis thaliana); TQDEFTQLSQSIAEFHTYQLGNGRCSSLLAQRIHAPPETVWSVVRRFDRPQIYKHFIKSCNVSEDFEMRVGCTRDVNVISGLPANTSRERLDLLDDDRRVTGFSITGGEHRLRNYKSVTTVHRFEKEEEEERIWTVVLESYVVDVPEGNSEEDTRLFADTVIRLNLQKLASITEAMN
| Substitution | relative binding score [%] |
| --- | --- |
| G102K | 97.8 |
| W41V | -13.9 |
| T173K | 56.9 |
| E4T | 102 |
| Q19Y | 101 |
| E131N | 104 |
| G21H | 93.8 |
| H110W | 16.1 |
| D144W | 70.9 |
| S42G | 104 |
| N149C | 81.6 |
| F47K | -23 |
| T173P | 66.9 |
| E4H | 104 |
| E125A | 98.2 |

Series 6 — method: protein-binding microarray; molecule type: double-stranded DNA, one strand shown; sample: in vitro; tested at: 940 nM top; setting: 60-bp whole probe; with: salmon DNA 0.4 mg/ml; reference: random background probes; direction: higher = stronger binding; all sequences stand within: GCCTAGCAC … GTCTTGATTCGCTTGACGCTGCTG
Target: Interferon regulatory factor 5, full length, phosphomimetic (IRF5, Homo sapiens, UniProt Q13568-2, residues 1-514, S451D/S453D/S456D/S462D)
| Oligonucleotide | fitted relative affinity [z-score] |
| --- | --- |
| TTAGGTATCCGTTTCGGTTAGTGCTAG | 4.33 |
| TTTGGACACAGACACAGGCCGTGCTAG | -0.514 |
| TTACAACTGAGACTGGATTAGTGCTAG | 0.215 |
| TTAGGACTGGACACTAGGTTAGTGCTA | -0.465 |
| TTAGATCCCAGTTTCGATTAGTGCTAG | 7.78 |
| TTAGGACTGCACACTGGGTTAGTGCTA | -0.417 |
| TTAGGACTGCTTCTCCTATAGTGCTAG | 0.0344 |
| TCCACTTTCTTAATGCTTCTGTGCTAG | 1.74 |
| TTAGGACTGCGTATCGGTTAGTGCTAG | 1.13 |
| TCATGTATGGATGTGTTACTGTGCTAG | -0.0468 |
| GGTCCTTTCTGCCTCAGAGGGTGCTAG | 0.407 |
| GACGATCTCAGTTTCGAGGCGTGCTAG | 3.84 |
| TCAACTCTTGCTTTTTAACTGTGCTAG | 0.722 |
| TAAGGTTCCCTTTTCCTTTAGTGCTAG | 0.617 |
| GACGATGTCAGTTTCGAGACGTGCTAG | 3.71 |
| GACGGTCTCGGGACTGGGGACGTGCTA | 0.854 |
| TGTGTTTTCACTTTTCCTACGTGCTAG | 2.41 |
| TACGGTCTCCTTATCCTGACGTGCTAG | 0.529 |
